# Results collected from several papers.
# Lines come from different studies, so protocols differ. Several values in a cell are separate wells, animals, samples, runs or records. ± marks the error that the study gave.
SMILES,cell line,test,conditions,scale,endpoint,value
CO[C@H]1/C=C\C=C(/C)C(=O)NC2=CC(=O)C(NCCN(C)C)=C(C[C@@H](C)C[C@H](OC)[C@H](O)[C@@H](C)/C=C(\C)[C@@H]1OC(N)=O)C2=O,iPSC-derived cardiomyocytes,concentration-response fit,,baseline: vehicle,fitted bottom MyBP-C/MYH ratio,41.2%
CN1CCN(C2(CNC3CCN(c4cccc(-c5cc6cc(F)ccc6[nH]5)c4)CC3)CCC2)CC1,A498,,,,CC50,6.86 µM
Cc1c(C(=O)NN2CCCCC2)nn(-c2ccc(Cl)cc2Cl)c1-c1ccc(I)cc1,TC-71,,"concentration not given, added: forskolin 10 µM",,cAMP increase over basal,16.6 ± 4.53%
Cc1c(O)c(O)cc2c1CC=C1[C@@]2(C)CC[C@@]2(C)[C@@H]3C[C@](C)(C(=O)O)CC[C@]3(C)CC[C@]12C,iPSC-derived cardiomyocytes,concentration-response fit,concentration not given,baseline: vehicle,fitted bottom MyBP-C level,0%
CCC(=O)N(CCC#N)c1ccc2c(c1)OCCN2CC(=O)NCC(=O)Nc1ccc(C(=O)NCCCCCCC(=O)NO)cc1.O=C(O)C(F)(F)F,MM1.S,PI flow cytometry,"10 µM, 48 h",,cell cycle distribution,no effect
C[C@@H]1O[C@@H](O[C@H]2C[C@@H](O)[C@]3(CO)[C@H]4[C@H](O)C[C@]5(C)[C@@H](C6=CC(=O)OC6)CC[C@]5(O)[C@@H]4CC[C@]3(O)C2)[C@H](O)[C@H](O)[C@H]1O,BT-12,"cell viability, MTT","10 µM, 72 h",,inhibition,94.9%
COc1c(C)c2c(c(O)c1C/C=C(\C)CCC(=O)O)C(=O)OC2,Placenta cancer cell lines,cell proliferation,,,IC50,0.24 µM
CC[C@H](C)[C@@H]([C@@H](CC(=O)N1CCC[C@H]1[C@H](OC)[C@@H](C)C(=O)N[C@@H](Cc1ccccc1)C(=O)O)OC)N(C)C(=O)[C@@H](NC(=O)[C@H](C(C)C)N(C)C(=O)CCSSC[C@H](NC(=O)[C@@H](NC(=O)CNC(=O)[C@H](CCC(=O)O)NC(=O)[C@H](CC(=O)O)NC(=O)[C@H](C)NC(=O)[C@H](CC(=O)O)NC(=O)[C@@H](NC(=O)[C@H](CC(C)C)NC(=O)[C@H](CC(C)C)NC(=O)[C@H](C)NC(=O)[C@H](CC(C)C)NC(=O)[C@H](CCCC(=O)O)NC(=O)[C@H](CC(C)C)NC(=O)[C@H](CC(C)C)NC(=O)[C@H](CC(C)C)NC(=O)[C@H](CC(C)C)NC(=O)[C@@H]1CCCN1C(=O)[C@@H](NC(=O)[C@@H](NC(=O)[C@H](Cc1ccccc1)NC(=O)[C@H](CC(C)C)NC(=O)[C@H](Cc1c[nH]c2ccccc12)NC(=O)[C@H](CC(C(=O)O)C(=O)O)NC(=O)[C@H](C)NC(=O)[C@H](Cc1ccc(O)cc1)NC(=O)[C@H](CCCNC(=N)N)NC(=O)[C@H](C)NC(=O)[C@H](Cc1c[nH]c2ccccc12)NC(=O)[C@H](Cc1ccc(O)cc1)NC(=O)[C@@H](NC(=O)[C@@H]1CCCN1C(=O)[C@H](CC(N)=O)NC(=O)[C@H](CCC(N)=O)NC(=O)[C@H](CCC(=O)O)NC(=O)[C@H](C)NC(=O)[C@H](C)N)[C@@H](C)CC)[C@@H](C)O)[C@@H](C)O)C(C)C)[C@@H](C)O)C(=O)NCC(N)=O)C(C)C,HeLa,MTT,"40 nM, 72 h, 2 h low pH treatment",,cell killing,~27%
COc1cc(CCC[P+](c2ccccc2)(c2ccccc2)c2ccccc2)c(OC)c2c1OCO2.[I-],SNB-75,SRB,,,TGI,-5.34 log M
Oc1ccc(C2(c3ccc(O)cc3)c3ccccc3-c3ccccc32)cc1,HepG2 spheroids,Hoechst flow cytometry,"10 µM, 96 h",,S phase cells,13.3 ± 2.64%
C=C[C@@]12CN(C)[C@H]3C[C@]14C(=Nc1ccccc14)[C@@H]1C[C@@H]2[C@@H]3CO1,Vero,CCK-8,"up to 100 µM, 24 h",,viability,no effect
COc1c(CCC[P+](c2ccccc2)(c2ccccc2)c2ccccc2)cc2c(c1OC)OCO2.[I-],SK-OV-3,SRB,,,GI50,-5.59 log M
O=C(Nc1ccc2[nH]nc(-c3ccncc3)c2c1)[C@@H]1CCN(CC(=O)N2CCN(c3ccc(-c4ncccn4)cc3)CC2)C1,HCT116,IncuCyte,"concentration not given, 4 (unit not given)",,PI-positive cells,4.42 count and 3.17 count and 2.08 count
O=S(=O)(c1ccc(O)cc1)c1ccc(O)cc1,HepG2 spheroids,Hoechst flow cytometry,"0.10 µM, 96 h",,G1 phase cells,77.4 ± 6.33%
CC(C)CN(C[C@@H](O)[C@H](Cc1ccccc1)NC(=O)O[C@H]1CO[C@H]2OCC[C@H]21)S(=O)(=O)c1ccc(N)cc1,ΔE-expressing cells,"ΔE mislocalization, high-content imaging",,,maximal efficacy,inactive
C[C@@H]1O[C@@H](O[C@H]2C[C@@H](O)[C@]3(CO)[C@H]4[C@H](O)C[C@]5(C)[C@@H](C6=CC(=O)OC6)CC[C@]5(O)[C@@H]4CC[C@]3(O)C2)[C@H](O)[C@H](O)[C@H]1O,iPSC-derived cardiomyocytes,"concentration-response curve, measured: MyBP-C protein level",24 h,,EC50,0.42 µM
CN1CC[C@@]2(C)c3cc(OC(=O)Nc4ccccc4)ccc3N(C)[C@@H]12,human PBMC,"ELISA, measured: IL-1β","0.1 to 10 µM, added: PHA 20 µg/mL",,inhibition,~50%
N.N.[Cl][Pt][Cl],NCI-H82,PI flow cytometry,"10 µM, 24 h",,cells in G1 phase,55%
CC(c1ccccc1)(c1ccc(O)cc1)c1ccc(O)cc1,HepG2 spheroids,Hoechst flow cytometry,"10 µM, 96 h",,S phase cells,11 ± 0.61%
COC(=O)C1CCN(C(=O)c2ccc(NCc3cnc4nc(N)nc(N)c4n3)cc2)CC1,786-O,"high-content imaging, measured: MitoTracker Red uptake",10 µM,,mitochondrial toxicity,-6.11 ± 3.2%
Oc1cc(Cl)ccc1Oc1ccc(Cl)cc1Cl,HepG2,"high content imaging, measured: DNA structure","24 h, distribution mode 2",,point of departure,17 µM
C/C=C(/C)C(=O)O[C@H]1C(C)=C2[C@H]([C@@H]1OC(=O)CCCCCCC)[C@@](C)(OC(C)=O)C[C@H](OC(=O)CCC)[C@@]1(O)[C@H]2OC(=O)[C@@]1(C)O,HEK-293T,"RNA-seq GSEA, measured: Hallmark interferon gamma response","500 nM, 6 h",direction not given,normalized enrichment score,-1.07
Nc1ncnc2c1ncn2[C@@H]1O[C@@H]2COP(=O)(O)O[C@H]3[C@@H](O)[C@H](n4cnc5c(=O)[nH]cnc54)O[C@@H]3COP(=O)(O)O[C@H]2[C@H]1O,HFF-1,"RNA sequencing Reactome analysis, measured: Reactome R-HSA-5663220",added: West Nile virus infection,"baseline: West Nile virus infected cells, upregulated pathway",pathway fold enrichment,3.61
COc1ccc2c(c1)[nH]c1c(C)nccc12,DU-145,"bisulfite pyrosequencing, measured: RASSF1A promoter CpG site 1","10 µM, 16 h",,DNA methylation,43.9%
Cc1nn(-c2nc3ccc(Cl)c(Cl)c3[nH]2)c(O)c1C1OC(=O)c2ccccc21 (centres unmarked),RAW-ISG,CCK-8,1 µM,,viability,106% and 102% and 113% and 121% and 99.9%
Nc1ncc(-c2nc(N3CCOCC3)nc(N3CCOCC3)n2)c(C(F)F)n1,A-172,cell growth,72 h,,GI50,0.355 µM
CCN(CC)c1ccc(C=NNC(=O)CSc2nc3ccccc3c(=O)n2Cc2ccc(S(N)(=O)=O)cc2)c(O)c1,A498,NCI five-dose screen,,,CC50,> 100 µM
Cn1cncc1C1=CN(c2ncnc3[nH]cnc23)CCS1,A498,,renal cancer,,CC50,> 200 µM
CN1C(=O)C2(CCN(C(=O)c3ccc(/C=C4\Oc5c(C(N)=O)cccc5C4=O)s3)CC2)c2ccccc21,SUM149,"cellular PARylation, inhibitor, Western blot",added: H2O2,,PARylation,inhibited
COc1cccc2c1C(=O)c1c(O)c3c(c(O)c1C2=O)C[C@@](O)(C(=O)CO)C[C@@H]3O[C@H]1C[C@H](N)[C@H](O)[C@H](C)O1,SK-OV-3,sulforhodamine B,"10 µg/mL, 48 h",negative means cell kill,growth percent,-25.5%
CC(=O)Nc1ccc(C=Cc2ccc(N=C=S)cc2S(=O)(=O)O)c(S(=O)(=O)O)c1,human neutrophils,"sulfate/chloride exchange, noncompetitive inhibitor",,,Ki,~50 µM
Cn1nccc1Nc1nccc(-c2ccn([C@H](CO)c3ccc(Cl)c(F)c3)c(=O)c2)n1,HCT116,IncuCyte,"concentration not given, 36 (unit not given)",,PI-positive cells,8.25 count and 9.67 count and 13.3 count
CC(C)N1CCC(NC2CCN(c3cccc(-c4cc5cc(F)ccc5[nH]4)c3)CC2)CC1,NCI-H226,,,,GI50,1.81 µM
COC(=O)/C(C)=C\C[C@@]12OC(C)(C)[C@@H]3C[C@@H](C=C4C(=O)c5c(O)c6c(c(CC=C(C)C)c5O[C@]431)O[C@](C)(CCC=C(C)C)C=C6)C2=O,iPSC-derived cardiomyocytes,"concentration-response curve, measured: MyBP-C/MYH ratio",24 h,,EC50,8.4 µM
O=C1NC(=O)N(CCc2ccc(F)cc2)C(=O)/C1=C/C=C/c1ccccc1,C127 LDR GFP reporter cells,"silenced GFP reporter induction, activator, high-content imaging","retest, two-run mean",,efficacy,49%

# Excerpt of the above:
SMILES,cell line,test,conditions,scale,endpoint,value
CO[C@H]1/C=C\C=C(/C)C(=O)NC2=CC(=O)C(NCCN(C)C)=C(C[C@@H](C)C[C@H](OC)[C@H](O)[C@@H](C)/C=C(\C)[C@@H]1OC(N)=O)C2=O,iPSC-derived cardiomyocytes,concentration-response fit,,baseline: vehicle,fitted bottom MyBP-C/MYH ratio,41.2%
CN1CCN(C2(CNC3CCN(c4cccc(-c5cc6cc(F)ccc6[nH]5)c4)CC3)CCC2)CC1,A498,,,,CC50,6.86 µM
Cc1c(C(=O)NN2CCCCC2)nn(-c2ccc(Cl)cc2Cl)c1-c1ccc(I)cc1,TC-71,,"concentration not given, added: forskolin 10 µM",,cAMP increase over basal,16.6 ± 4.53%
